# Measured values collected from several papers.
# A part holds a random share of what one study measured.

# Block 1 — method: RNA Bind-n-Seq; form: RNA; matrix: in vitro; tested at: 200 nM; setting: whole 134-nt RNA, ends assumed; added: 150 mM LiCl; baseline: input library; direction: higher = stronger binding; library: 7-deaza-guanosine replaces G
# Target: Ras GTPase-activating protein-binding protein 1, full length (G3BP1, Homo sapiens, UniProt Q13283)
# Sequence of UniProt Q13283 (whole entry, looked up): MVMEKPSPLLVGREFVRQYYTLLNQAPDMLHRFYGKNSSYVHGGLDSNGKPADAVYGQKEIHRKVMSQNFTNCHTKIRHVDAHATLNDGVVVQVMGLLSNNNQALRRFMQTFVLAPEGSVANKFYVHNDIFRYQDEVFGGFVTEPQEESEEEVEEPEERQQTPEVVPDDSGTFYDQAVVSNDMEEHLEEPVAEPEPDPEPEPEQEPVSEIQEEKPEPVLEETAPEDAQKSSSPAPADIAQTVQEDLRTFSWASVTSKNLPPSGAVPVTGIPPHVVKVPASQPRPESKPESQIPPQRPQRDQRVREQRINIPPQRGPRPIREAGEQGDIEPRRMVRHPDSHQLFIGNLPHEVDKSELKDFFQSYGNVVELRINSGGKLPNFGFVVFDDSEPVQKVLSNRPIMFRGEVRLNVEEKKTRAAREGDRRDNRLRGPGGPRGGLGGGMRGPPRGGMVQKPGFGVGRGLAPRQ
# Constant ends, left off below: GGGAGUUCUACAGUCCGACGAUC … UGGAAUUCUCGGGUGUCAAGG
Sequence,log2 enrichment
UUACUAGAAAAGGCAGAAGCCCGUGAACGUGAAAGAGAAAAAGAAGAGGCUCGGAAGAUGAAACGAAAAGAAUCUGCAUUUAAGAGUAUG,-2.15
AGUCCUGUGCUACACAUCGUAUGUACCGAAUCGGGGAAAAAAAGGGGAGGGGAGGGGAAAGUAUUAUGUUACGCCGUUCGGAUCUGCACU,0.139
UCCUGUGCUACACAUCGUAUGUACCGAAUCGGGCCCCCCGGCCCCCCGGGGCCCCCCGGGAAAGUAUUAUGUUACGCCGUUCGGAUCUGC,0.131
CCUGUGCUACACAUCGUAUGUACCGAAUCGGGUUUUUUUGGGUUUUUGGGUUUUUUUGGGAAAGUAUUAUGUUACGCCGUUCGGAUCUGC,0.153
ACCAUGUAGGUGGGCAUCUUUGGGAAGUGGGGCAAGGGGGGGAUAGGGAGGGGGGUAACACUUUGGGAACAGGUGGUCCCAGGUCGUUUC,0.305
UCAAGUCCUGUGCUACACAUCGUAUGUACCGAAUCGGUUUUUGGAAAGGUUUGGAAAGUAUUAUGUUACGCCGUUCGGAUCUGCACUUCC,-1.19
AAGUCCUGUGCUACACAUCGUAUGUACCGAAUCGGUUUUUUUGGUUUUUGGAAAGGAAAGUAUUAUGUUACGCCGUUCGGAUCUGCACUU,-0.925
UUCUCUCAUUUCUUCUGAAAUACAGGGCAAAUUGGAUCAAGGCAGUUCAGAUGUGUAGCAAACCCAGAGAAUUUGCAUUGGCUUUAGCCA,-1.72
ACCAUGCAGGUGGGCAUCUUUGGGAAGUGGGGCAAGGGGAGGAUAGGGAGGGGGGUAACACUUUGGGAACAGGUGGUCCCAGGUCGUUUC,0.376
GUCCUGUGCUACACAUCGUAUGUACCGAAUCGGGCCCCCCGGGCCCCCCGGCCCCCCGGAAAGUAUUAUGUUACGCCGUUCGGAUCUGCA,-0.35
UGGACCCGGAGCUGAUGCAGAAGUUCAGCUGCCUGGGCACCACCGACAAGGACGUGCUCAUCUCCGAGUUCCAGAGGCUGCUCGGCUUCC,-1.17

# Block 2 — method: RNA Bind-n-Seq; form: RNA; matrix: in vitro; tested at: 365 nM; baseline: no-protein control; direction: higher = stronger binding
# Target: RNA binding protein fox-1 homolog 2, RRM domain, GST-SBP tag (RBFOX2, Homo sapiens, UniProt O43251-10, residues 100-194)
# Setting: natural RNA segment, single round, ends assumed
# Constant ends, left off below: GGGAGUUCUACAGUCCGACGAUC … UGGAAUUCUCGGGUGCCAA
# Target sequence (chain): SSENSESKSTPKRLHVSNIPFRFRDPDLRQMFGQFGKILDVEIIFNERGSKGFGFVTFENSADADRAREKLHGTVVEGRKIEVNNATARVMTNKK
Sequence,RBNS enrichment (R)
GUCUUAAGAAGCUUUUUCCCCAUAGUGCCUAUAGUUUCCAAAGAAACUCAACUUCCUAACUGUGUUAACUUAAUUUUAUUAGAACACUACAGUUGAGUGAGAACGUGCAG,0.399
CUGGCUGCCCUCCUCCCUGGCUGUGUAAAUAGUCUCCCUAUCCCACGAGGGGGCUUUGAUGGCCCUGGAGAUCCUACAGUAAAUAAACCAGCAUCCUGCCGCCCAAAGCC,0.5
AGGGUGAAUAAAGUUUAGGGAGCUGGGACACCUGGUCCUGCUAGCUGGACCACUGGCUCAUCAUGCAAUGAAAAGGUGAGCAGACUUAACCCCUCCGUGCCUCAGCUUUU,1.17
AUGUACAUAGAAUUGCCAGUGUAUAAAUUAAGAUGUUUUAUUGUUGUUGUCCUUCUUAAUCUCAUUAUACUUCAUCAUGUUGAGUUUCCCAACAUGUGAUGACUAUUCUU,1.07
CACAGGGCAGGUAUGUGGGAGGCUGGGCUGCUUAGUGUCUUCUAGUCACCUCUGCUUGGGCUGAUUGACAGAGGUCAGUCAUUACAGCCCCUUAUGCCUCUUCCAUGGGA,0.906
UCAGAACAGAGGCUUUUUGUUUUUUGUUUUUUUGUUUUUGUUUUUAUUAUUAUGUUAUCAGUAAUCACUGGCAAAAAAAAAAAAAACAAUGGCCAGGUACUACACUGUCG,0.436
AGUUUAAGUUUUAAACUAAAAGUUACAGAAUUGAAUGUGGAUACCGGCUUCAUUCACCCCCACUUGGAUUCUAAACAUGACCAGUGAAAUAGUGAAAGCUGACCACAGUU,0.25
AUCUUGCUUUUCAGAAAUUACCGAAUGUGUAUAAACAAAUAAAGAAAAAUAAUUUAGCUGUGUUUUAGACAGCAUUAGAAUAUAUUGUUCAGCACAGUAAAAUAUAUUUG,0.617
GUUCUUUUAUAAAGAUAUGGAUUGGUUUACCAGCUGUUUAAAAAAAAAAACAUGUGUCCUAGCUGGGCAUAGUGGUGCAUACCUUUAAUCCCAGCACUUGGGAGGCAGAG,0.336
UUUUAUUUCAGUUUUUAUUAUAUAUUUAUUUGAAAUAUUUAUUAAAUUAUCUGACCUACAGAACUAAUUCUUCUCCUUUUGUUAUUUCUUAUGUCCUAUACCAUAUAUGU,3.74
CCAGGAUGGUCUCGAUCUCCUGACCUUGUGAUCCACCCGCCUCAGCCUCCCAAAGUGCUGAGAUUACAGGCGUGAGCCACCGCGCCUGGCCUAUUUCCAGUUUUAUGUGA,0.308
CAUCUCUCGCUUGCUUAAAGUCUUGAGGAAAAUGUUCCUGUUUGCUGCGUGGGCCUGGGUGGGAUGUCUGUUGGCUCUGUUGUGUUUACUCACCGGUUUGUACAUUAUCU,1.6

# Block 3 — method: RNA Bind-n-Seq; form: RNA; matrix: in vitro; tested at: 100 nM; baseline: input RNA pool; direction: higher = stronger binding
# Target: RING finger protein unkempt homolog, zinc fingers 1-6, SBP tag (UNK, Homo sapiens, UniProt Q9C0B0, residues 30-357)
# Sequence of UniProt Q9C0B0 (30-357, looked up): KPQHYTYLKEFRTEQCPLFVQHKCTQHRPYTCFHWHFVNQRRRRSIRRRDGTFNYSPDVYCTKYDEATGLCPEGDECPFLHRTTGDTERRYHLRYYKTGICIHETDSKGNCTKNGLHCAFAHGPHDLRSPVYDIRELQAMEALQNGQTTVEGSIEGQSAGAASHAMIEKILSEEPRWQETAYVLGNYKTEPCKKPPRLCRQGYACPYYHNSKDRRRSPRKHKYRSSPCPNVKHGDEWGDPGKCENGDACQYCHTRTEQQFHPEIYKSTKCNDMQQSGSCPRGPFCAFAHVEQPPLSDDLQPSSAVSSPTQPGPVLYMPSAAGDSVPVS
# Setting: RNA with constant flanks, vertebrate orthologous sites, ends assumed
# Constant ends, left off below: GGGAGUUCUACAGUCCGACGAUC … CAACAGAGGAUUGAGCAUCA
Sequence,bound/input enrichment [ratio]
AGUCAUUUAUAGCAAUUACAGUGGGUUGCCCCUCUACCUCUCCCAAGAAGGAAUCCCAAAUAGAUUCCUUUCAUGUCAGAUUAUACUGUUCUGAUUUUAUUUUCUAUUAUUUUUACAUAU,1.75
CCCUCUGAACCCCAUAUCUUCUGUCUCAUAGUGCAGAAGUAUUCUUUUCAGUUAUAUUACUAGUGGACUUGUUUUAAUUUUAGAGAACUUCAGUACGGAUACUGUGAGCUUACAUGGAAA,2.07
GUGACUUUGGACGUCCGUUCAUCCUCGGUGUAGGGAUUACUUAGUGCCGGGCCUUCCACGUUUGGUUUUUUCUUCUGGACAGGAGGUCUCUGCAGCAACCAUGUUACGCCAGAUCAUCGG,0.377
CGGCAGAUUCUCUCAUAGGAAGAGCUGCACACAUUGCUGUUCUUGAUUCAGAAAUAUUUUUAGAAAAAUUCUUUCUUGUUGCUGCCCUAAAAUAUUUUCAGUAGGGAAUAGCAUUCUAAG,1.31
AUCACAGUCGCUUUUUACCACCUCAAUGAGGUAGAGUCUCUCUUGGCAUGUGGUUGUUACAAGAGCCAGUUGCACCUGACAAGUCUCUCCACAUUUCAUUUCUUUCGCAUUCUUGGUCUU,0.645
AACAGCUUUUGCUUCAUUAAGAAGAGUAAAAACUAGUCCCCCCAACUUAAAAUGCCUAAAGAGCUAUUUUAAACAUCAAAAUGCUUCAAUUUUGUAAAUCACCUGACGUCACUACACACA,0.588
AAAUUCCCCCAUUGUCACUGAGAACCACCAAAUCUGACUUUUACAUUUGGUCUCAGAAUUUAGGUUCCUGCCCUGUUGGGUUUUUUUUUGUUUUUUUAAACCGUUUUCAAAAGUUCUUAA,0.67
UCCUCUGAACCCCAUAUCUUCUGUUUCAUAAUGCAGAAGUGUUCUUUUCAAUUAUAUUAGUGGACUUGUUUUAAUUUUAGAGAAACUUCCAGUAAGAUACUAUGGGCUGACAUGGAAAAA,2.84
AUUGUGGCUGCUUUUUACCGCCUCAAUGAGGUAAAGUCUCCCUUGGCAUUUGGUUGGUACUGGAGCCACUCAUACCUAAUAAGUCCUUCUGCUUUUCAUUUCUUUCACACUCAUAGUCAU,0.812
AGCCUCCCCGUUACCCAUGAAAUAGAACUUUUUAAAAUUGUGUUGCCACCACAUGUAAAAAACUUAGCAAUAUUAGAAUAAGAUGCUAAUGAAGUCAGAAAUUUUGCUCAUUGUUUUGAA,1.94
CAUCUAUUUCAUUUUGAAGACAGUGUCUUUGGUUGUUCACGUUGUUCUUUUUGAUGGCUGGGUUACCGAGUAUCUUUUGGCAUCUGCCUGAAUCACUUCCACUGAGUGAACCAGUCACCA,0.266

# Block 4 — method: protein binding microarray; form: double-stranded DNA, one strand shown; matrix: in vitro; tested at: not given; baseline: not given; direction: higher = stronger binding
# Target: Histone acetyltransferase KAT6A, winged helix 2, GST fusion (KAT6A, Homo sapiens, UniProt Q92794, residues 85-181)
# Setting: 8-mer, flanks averaged, mean of 2 arrays, mostly near background
# Residues (chain): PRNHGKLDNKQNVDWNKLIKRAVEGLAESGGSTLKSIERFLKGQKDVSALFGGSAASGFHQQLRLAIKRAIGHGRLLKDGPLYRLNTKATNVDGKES
Sequence,E-score
GCACGGCA,0.0985
ACGGACAA,0.102
ATCATATC,0.156
TCTAGTAA,-0.122
ATACCCCA,-0.0859
CGGTACTA,-0.196
GGATCTCA,0.0345
GACAAAAA,0.15
AGACCCCC,-0.131
TACGCGAA,-0.0344
CGATCGGC,0.157
GATGCCGA,0.0979
GAACCTGA,-0.195
CGTCCGAC,-0.0112
CCTGACGA,0.145
CCCCCCTC,0.076
AGGGGCAA,0.054
ATTTCTAG,0.03
GACTCTAA,-0.255
CGGGGATA,-0.00318
CTTAAGCA,0.0741
AGTCCTGC,-0.13
CCAAGTGC,0.0486
ACCACGTG,-0.167

# Some of these lines once more (block 3):
Sequence,bound/input enrichment [ratio]
AGUCAUUUAUAGCAAUUACAGUGGGUUGCCCCUCUACCUCUCCCAAGAAGGAAUCCCAAAUAGAUUCCUUUCAUGUCAGAUUAUACUGUUCUGAUUUUAUUUUCUAUUAUUUUUACAUAU,1.75
CCCUCUGAACCCCAUAUCUUCUGUCUCAUAGUGCAGAAGUAUUCUUUUCAGUUAUAUUACUAGUGGACUUGUUUUAAUUUUAGAGAACUUCAGUACGGAUACUGUGAGCUUACAUGGAAA,2.07
GUGACUUUGGACGUCCGUUCAUCCUCGGUGUAGGGAUUACUUAGUGCCGGGCCUUCCACGUUUGGUUUUUUCUUCUGGACAGGAGGUCUCUGCAGCAACCAUGUUACGCCAGAUCAUCGG,0.377
CGGCAGAUUCUCUCAUAGGAAGAGCUGCACACAUUGCUGUUCUUGAUUCAGAAAUAUUUUUAGAAAAAUUCUUUCUUGUUGCUGCCCUAAAAUAUUUUCAGUAGGGAAUAGCAUUCUAAG,1.31
AUCACAGUCGCUUUUUACCACCUCAAUGAGGUAGAGUCUCUCUUGGCAUGUGGUUGUUACAAGAGCCAGUUGCACCUGACAAGUCUCUCCACAUUUCAUUUCUUUCGCAUUCUUGGUCUU,0.645
AACAGCUUUUGCUUCAUUAAGAAGAGUAAAAACUAGUCCCCCCAACUUAAAAUGCCUAAAGAGCUAUUUUAAACAUCAAAAUGCUUCAAUUUUGUAAAUCACCUGACGUCACUACACACA,0.588
AAAUUCCCCCAUUGUCACUGAGAACCACCAAAUCUGACUUUUACAUUUGGUCUCAGAAUUUAGGUUCCUGCCCUGUUGGGUUUUUUUUUGUUUUUUUAAACCGUUUUCAAAAGUUCUUAA,0.67
